Published values collected from several papers.
Numbered parts are unrelated; each lists some results of a single study.

Block 1
Target: RNA binding protein fox-1 homolog 2, RRM domain, GST-SBP tag (RBFOX2, Homo sapiens, UniProt O43251-10, residues 100-194)
Technique: RNA Bind-n-Seq
Form: RNA
Sample: in vitro
Concentration: 365 nM
Setting: natural RNA segment, single round, ends assumed
Reference: no-protein control
Direction: higher = stronger binding
Constant ends, left off below: GGGAGUUCUACAGUCCGACGAUC … UGGAAUUCUCGGGUGCCAA
Construct (chain): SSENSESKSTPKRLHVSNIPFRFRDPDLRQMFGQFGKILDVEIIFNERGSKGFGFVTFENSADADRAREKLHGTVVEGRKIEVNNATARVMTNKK
Sequence	RBNS enrichment (R)
UCAGCGGAUGUUCACUCUGGCCUGCCGUUCCCCGUGGCAUGCGGGGUGAGGGUGGCUUUCUUCCAGCCCCAAAUGAGACGAGUCUGUGUCAUCAUUGAAACUGCUUUUCG	0.64
AACCCCUUUAUUGCUGUCUGAGAAAGUGAAAGAUUGUGUAUUUCUAUUAAAACAUUUACAAUCAAAAUUCUAAUGACUGUGCUUAAAGAUAAUUUAGUCUAAUGGUUCUC	0.412
ACAAGUUGUUAAAACAUUUAAUAUUAUAUAGGAUAUUGCUAAUUGUGUAUAUGUUGGUUUAAUUAAUAAUAUGUACUAAGAAUGUCCUUAUUCUUGUGGUUAAAAACCUG	0.403
UCUGCAGGCUGAAUGCAGUCUCCAGACUGGAAACGCAGAGCGGCUCCUCACGCCUAAUCCUGUUGACAAGUCCCCCGCCGUGUUGGAAAGACCUCUCGCCUCUACGUGGC	0.307
CCUUAUUAUAUUGAUACUCUUCUUGAGGAGGAAAUCUCACCUUUUCUUUUUCAAGAGAUUCUGAGGCAGUCCCCACCCAAUCCAAAUAGGUAGCUGCUUGUGCAGGUCCU	0.33
GAAUUAUGUGCACUACCAUAGCUACAUCAGUUUGAUACAGUAUUGAAAAAUUAUCAGUUAUAUUUUGCUGUUUAUGAUCUAUUUGUAGAUUAGGAUUAAAAUGGAUUUAA	0.9
CUCUCUUUAAAGUCUAGUCCCGGCAUUCCUCCAUGUGAUUGACAGCCAGACCUCUGGGUUCCCAGGAAAUUAUCUUCCAGUUGAAUGACCAUUUACUUGAUACAAAUUGU	0.429
CAAAAACCCAGUGCAGCUGAUGAUGCAAAGCAGUCUCUCUCUGUGUACAGUGCCCCACCUAUUUAAAAAUCACGUACUUGCCCAGAACACUGUGAAACACUUAACAUAAG	0.42
AUCAUUGCCAUCGUGUGCUUGUUUCAUCCAGUGUUAUGCACUUUCCACAGUUGGACAUGGUGUUAGUAUAGCCAGACGGGUUUCAUUAUUAUUUCUCUUUGCUUUCUCAA	0.825
GGGGUACCUGGUCCCCAUUUCCUACUCCUCUUUUAACAAAAGAGAAAAGAAUUCCAAACCACCACCAGCUCUGUAGUCUUGCCUCAUAUAUCCUGGGUGUUGCUGGCUGG	0.614
UGUUUUUUGUGCAUAUAUUUCUGCUACCACAGAGAUUGUACUAUACAAAUAAAAAAAUAAAAACCCACCUCAAGCUGUCACCCUUGGAUGUGUCCUGAAUCUCAGGCAGG	0.377
GUCCUGUGUUCAAGACACUGAAGCUAUCUCCCAUGUUCUGUGUGAGAUUUCUGAGUAAGAUCUGGCAAGUGAGGGAGCUUUUCUUGAGAGGGGAAGGCUACAUUUCUAUG	0.635

Block 2
Target: Ras GTPase-activating protein-binding protein 1, full length (G3BP1, Homo sapiens, UniProt Q13283)
Sequence of UniProt Q13283 (whole entry, looked up): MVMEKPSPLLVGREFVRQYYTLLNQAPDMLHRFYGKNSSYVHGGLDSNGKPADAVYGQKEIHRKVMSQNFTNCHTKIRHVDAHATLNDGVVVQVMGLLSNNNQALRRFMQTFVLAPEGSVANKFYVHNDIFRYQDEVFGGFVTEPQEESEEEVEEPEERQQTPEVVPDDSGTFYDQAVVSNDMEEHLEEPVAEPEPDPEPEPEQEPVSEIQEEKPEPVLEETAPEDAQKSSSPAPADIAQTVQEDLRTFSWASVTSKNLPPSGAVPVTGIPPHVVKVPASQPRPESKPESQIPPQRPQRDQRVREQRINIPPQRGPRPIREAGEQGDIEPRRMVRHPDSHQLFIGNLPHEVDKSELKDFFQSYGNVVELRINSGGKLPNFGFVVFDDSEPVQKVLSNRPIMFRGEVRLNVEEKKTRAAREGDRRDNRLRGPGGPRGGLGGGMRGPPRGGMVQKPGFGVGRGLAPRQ
Technique: RNA Bind-n-Seq
Form: RNA
Sample: in vitro
Concentration: 200 nM
Setting: whole 134-nt RNA, ends assumed
Added: 150 mM LiCl
Reference: input library
Direction: higher = stronger binding
All molecules: 7-deaza-guanosine replaces G
Constant ends, left off below: GGGAGUUCUACAGUCCGACGAUC … UGGAAUUCUCGGGUGUCAAGG
Sequence	log2 enrichment
UUUAGUGACUUUGGAUGAAGUAACUGAAGAGGAUGAAGACUCUCUGGCGGAUUUUAACAACCUUAAAGAAGAGCUUAAUUUUGUUACUGU	-3.73
AAGUCCUGUGCUACACAUCGUAUGUACCGAAUCGGGAAAGGGAAAAAGGGAAAGGGAAAGUAUUAUGUUACGCCGUUCGGAUCUGCACUU	-0.0694
CAGAGACAACACGCACCCACACAGACACAGAGGGAAGGGGUUGGGAUGGGGACAGGGUGCACAGCAGGGCGGGGUAGGACCCCAGCCCCU	0.526
CUGUGCUACACAUCGUAUGUACCGAAUCGGGUUUUUUUGGGGUUUUUUUGGGGUUUUUUUGGAAAGUAUUAUGUUACGCCGUUCGGAUCU	1.84
AAGUCCUGUGCUACACAUCGUAUGUACCGAAUCGGGAAAAAGGGAAAAAGGGAGGGAAAGUAUUAUGUUACGCCGUUCGGAUCUGCACUU	0.262
UGGCCCUGGUGGCAUGCGAGGAGGAAGAGGUGGCCUCAUGGAUCGUGGUGGUCCCGGUGGAAUGUUCAGAGGUGGCCGUGGUGGAGACAG	-0.00137
UCAAGUCCUGUGCUACACAUCGUAUGUACCGAAUCGGAGGUUUUUUUGGAAAGGAAAGUAUUAUGUUACGCCGUUCGGAUCUGCACUUCC	-0.636
GUCCUGUGCUACACAUCGUAUGUACCGAAUCGGGGUUUGGGGAAAAAAAGGGGAGGGGAAAGUAUUAUGUUACGCCGUUCGGAUCUGCAC	-0.0519
AAGUCCUGUGCUACACAUCGUAUGUACCGAAUCAAAUUUUUAAACCCAAACCCAAAAAAGUAUUAUGUUACGCCGUUCGGAUCUGCACUU	1.18
ACCAUGCAGGUGGGCAUCUUUGGGAAGUGGGGCAAGGGGGGGAUAUGGAGGGGGGUAACACUUUGGGAACAGGUGGUCCCAGGUCGUUUC	0.256
GUCCUGUGCUACACAUCGUAUGUACCGAAUCGGAAAAAAAGGAAAAAAAGGUUUUUGGAAAGUAUUAUGUUACGCCGUUCGGAUCUGCAC	-1.83

Block 3
Target: RING finger protein unkempt homolog, zinc fingers 1-6, GST-SBP tag (UNK, Homo sapiens, UniProt Q9C0B0, residues 30-357)
Technique: RNA Bind-n-Seq
Form: RNA
Sample: in vitro
Concentration: not given
Setting: RNA with constant flanks, human and mouse sites, ends assumed
Reference: input RNA pool
Direction: higher = stronger binding
Constant ends, left off below: GGGAGUUCUACAGUCCGACGAUC … CAACAGAGGAUUGAGCAUCA
Residues (chain): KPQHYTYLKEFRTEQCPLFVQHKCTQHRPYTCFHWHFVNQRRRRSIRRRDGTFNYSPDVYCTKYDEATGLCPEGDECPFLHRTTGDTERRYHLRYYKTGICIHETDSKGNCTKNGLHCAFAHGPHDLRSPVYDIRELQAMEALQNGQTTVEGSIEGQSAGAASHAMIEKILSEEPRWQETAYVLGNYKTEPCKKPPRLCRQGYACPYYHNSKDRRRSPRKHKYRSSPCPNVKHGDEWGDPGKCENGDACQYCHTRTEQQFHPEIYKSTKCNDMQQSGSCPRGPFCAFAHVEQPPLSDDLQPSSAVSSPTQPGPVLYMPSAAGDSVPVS
Sequence	bound/input enrichment
CCAUGUUUAUUAGCUGGAGGUUUAUUAACAUAUAAAUCUCCUGCUACCUCACCCAUUAGUAGUAAUUCUCACAGGUCACUGGAUGGUUUAAGCAGAACUCAGGGUGAAAGUAUAUCAGAA	0.55 ratio
UGCAAUUGGGUAGUGGACACUUGUUUACACAAGGGAAGUCGAGAUAACAUGAGUAUUGUACUAGUUUGCUUUUCAAAUGCUCCCAAGGUCUCAGAUGAAGCGGUGAAAAAAGAUUCAGAG	0.255 ratio
AAAGUGGACUAUGGCGAGUACAUGGAUAAAAACAAUGUGAGGCGGCAAGCAACAACAAUCAUAGCUGAUAACAUUAUAUUUCUGAGUGACCAGACAAAAGAAAAGGCAUAGAACGGAUGA	2.91 ratio
AAGAUCCUUUCGGUAAAUGGCCAAGACCUAAAGAACCUGCUGCACCAGGAUGCUGUAGACCUCUUUCGUAAUGCAGGCUAUGCUGUGUCUCUGAGAGUGCAGCACAGGUUACAGGUGCAG	0.0652 ratio
AGGGACCUGAGCAUCGAUCCCAGGCAGCUGGCUCCGGCCCCGGGGGGCACCCACGUGGUGGCCCUAGUGCCUGCGCGCUGGCUGGCCAGCCUCCGCGAUCGCCGGCUGCCCCUGGGACCC	0.0984 ratio
AUAUCCAUAUAUACCUUCCAGUGUUCACACAGGAUGGGGUUCCCAGCCUUGCAUGGUUGCUAGGUUGGGGGCAGGCCCAGUCUGCUCAAGGCCCACGAUGAUCUUGGUGCUCCAGGCAGG	0.132 ratio
GCAGGAGUCCGCCAGCAGGAGGGGGAGAGUCGGCUCAACCUGGUGCAGAGAAAUGUCAACGUGUUCAAGUUCAUCAUUCCUCAGAUCGUCAAGUACAGCCCUGACUGCACCAUCAUCGUG	0.0815 ratio
CCCCCGGCGGCCGGCUUCCUGUACUGGGUGGGCGCGAGCACCAUUGCCUACCUGGCCCUGCGAGCCUCGUACUCGCUCUUCAGGGCCUUCCAGGUGUGGUGCGUGGGCAACGAGGCCUUG	0.121 ratio
GUCUUGUGUUUUGGUUUUGGGGUUUUUGUUUUGUUUGUGUUUUGUUUGGCUUGUUUGUUUUUUAAGGGGAAAAAAGUUUGUAAUUAUUUCAUCCAAAUCUCCCGUUAUAUAUCUGUGAAU	1.5 ratio
UGAGCCUAGUUUCUCUGCUUGAAAGAGCCACAAUUGAUUGAAAGCCUGUUGUAACCUAACCUGACUCCCGGAAGUGACAAAGGAACAAGUGAGCAGUAGGUUGUUCCGCUUACUAGGACU	0.245 ratio
AUGUCAAUGUCAUCAUCGCCUCCCACCUGCUGCUCUGCUCUGUGCCUGGAGACUGAGCAUUUAUUUACCACAGACGCCACACGAAGCUUUUCACUCCAGCGUGGUUGGCAAUGCAGAUUC	0.0782 ratio

Block 4
Target: Histone acetyltransferase KAT6A, winged helix 2, GST fusion (KAT6A, Homo sapiens, UniProt Q92794, residues 85-181)
Technique: protein binding microarray
Form: double-stranded DNA, one strand shown
Sample: in vitro
Concentration: not given
Setting: 8-mer, flanks averaged, mean of 2 arrays, mostly near background
Reference: not given
Direction: higher = stronger binding
Target sequence (chain): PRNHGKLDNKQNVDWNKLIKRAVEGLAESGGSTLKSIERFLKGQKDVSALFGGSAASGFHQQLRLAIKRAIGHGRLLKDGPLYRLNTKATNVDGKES
Sequence	E-score
GTATTGAA	0.00692
AATTTCGC	0.0564
CGAGCTAA	0.0327
GTCCATAA	-0.131
ACAGGGGT	-0.248
TGAATTCA	0.000715
CGCACGTA	-0.198
CGACGGTA	-0.0466
GTAGCACA	0.0177
GACAAGTC	-0.0407
GTCCACAA	-0.18
GTACAAGA	-0.196
AAAGCTCT	0.0164
ACCTCAGG	0.0352
GCGGCCAC	0.0277
ATTGAGAC	0.0284
CTAAGGAG	-0.0481
ACAAGATA	-0.0518
CATACTTC	-0.111
CCGAGGGC	0.116
CACATCAC	-0.0389
CCAAAGGC	0.0884
CATCCTTA	-0.211
AGTACCAG	0.0688

A few entries again (block 2):
Sequence	log2 enrichment
UCAAGUCCUGUGCUACACAUCGUAUGUACCGAAUCGGAGGUUUUUUUGGAAAGGAAAGUAUUAUGUUACGCCGUUCGGAUCUGCACUUCC	-0.636
GUCCUGUGCUACACAUCGUAUGUACCGAAUCGGGGUUUGGGGAAAAAAAGGGGAGGGGAAAGUAUUAUGUUACGCCGUUCGGAUCUGCAC	-0.0519
AAGUCCUGUGCUACACAUCGUAUGUACCGAAUCAAAUUUUUAAACCCAAACCCAAAAAAGUAUUAUGUUACGCCGUUCGGAUCUGCACUU	1.18
ACCAUGCAGGUGGGCAUCUUUGGGAAGUGGGGCAAGGGGGGGAUAUGGAGGGGGGUAACACUUUGGGAACAGGUGGUCCCAGGUCGUUUC	0.256
GUCCUGUGCUACACAUCGUAUGUACCGAAUCGGAAAAAAAGGAAAAAAAGGUUUUUGGAAAGUAUUAUGUUACGCCGUUCGGAUCUGCAC	-1.83
